Assay results gathered from unrelated publications.
ATR: Serine/threonine-protein kinase ATR (ATR, Homo sapiens, UniProt Q13535)
Sequence of UniProt Q13535 (whole entry, looked up): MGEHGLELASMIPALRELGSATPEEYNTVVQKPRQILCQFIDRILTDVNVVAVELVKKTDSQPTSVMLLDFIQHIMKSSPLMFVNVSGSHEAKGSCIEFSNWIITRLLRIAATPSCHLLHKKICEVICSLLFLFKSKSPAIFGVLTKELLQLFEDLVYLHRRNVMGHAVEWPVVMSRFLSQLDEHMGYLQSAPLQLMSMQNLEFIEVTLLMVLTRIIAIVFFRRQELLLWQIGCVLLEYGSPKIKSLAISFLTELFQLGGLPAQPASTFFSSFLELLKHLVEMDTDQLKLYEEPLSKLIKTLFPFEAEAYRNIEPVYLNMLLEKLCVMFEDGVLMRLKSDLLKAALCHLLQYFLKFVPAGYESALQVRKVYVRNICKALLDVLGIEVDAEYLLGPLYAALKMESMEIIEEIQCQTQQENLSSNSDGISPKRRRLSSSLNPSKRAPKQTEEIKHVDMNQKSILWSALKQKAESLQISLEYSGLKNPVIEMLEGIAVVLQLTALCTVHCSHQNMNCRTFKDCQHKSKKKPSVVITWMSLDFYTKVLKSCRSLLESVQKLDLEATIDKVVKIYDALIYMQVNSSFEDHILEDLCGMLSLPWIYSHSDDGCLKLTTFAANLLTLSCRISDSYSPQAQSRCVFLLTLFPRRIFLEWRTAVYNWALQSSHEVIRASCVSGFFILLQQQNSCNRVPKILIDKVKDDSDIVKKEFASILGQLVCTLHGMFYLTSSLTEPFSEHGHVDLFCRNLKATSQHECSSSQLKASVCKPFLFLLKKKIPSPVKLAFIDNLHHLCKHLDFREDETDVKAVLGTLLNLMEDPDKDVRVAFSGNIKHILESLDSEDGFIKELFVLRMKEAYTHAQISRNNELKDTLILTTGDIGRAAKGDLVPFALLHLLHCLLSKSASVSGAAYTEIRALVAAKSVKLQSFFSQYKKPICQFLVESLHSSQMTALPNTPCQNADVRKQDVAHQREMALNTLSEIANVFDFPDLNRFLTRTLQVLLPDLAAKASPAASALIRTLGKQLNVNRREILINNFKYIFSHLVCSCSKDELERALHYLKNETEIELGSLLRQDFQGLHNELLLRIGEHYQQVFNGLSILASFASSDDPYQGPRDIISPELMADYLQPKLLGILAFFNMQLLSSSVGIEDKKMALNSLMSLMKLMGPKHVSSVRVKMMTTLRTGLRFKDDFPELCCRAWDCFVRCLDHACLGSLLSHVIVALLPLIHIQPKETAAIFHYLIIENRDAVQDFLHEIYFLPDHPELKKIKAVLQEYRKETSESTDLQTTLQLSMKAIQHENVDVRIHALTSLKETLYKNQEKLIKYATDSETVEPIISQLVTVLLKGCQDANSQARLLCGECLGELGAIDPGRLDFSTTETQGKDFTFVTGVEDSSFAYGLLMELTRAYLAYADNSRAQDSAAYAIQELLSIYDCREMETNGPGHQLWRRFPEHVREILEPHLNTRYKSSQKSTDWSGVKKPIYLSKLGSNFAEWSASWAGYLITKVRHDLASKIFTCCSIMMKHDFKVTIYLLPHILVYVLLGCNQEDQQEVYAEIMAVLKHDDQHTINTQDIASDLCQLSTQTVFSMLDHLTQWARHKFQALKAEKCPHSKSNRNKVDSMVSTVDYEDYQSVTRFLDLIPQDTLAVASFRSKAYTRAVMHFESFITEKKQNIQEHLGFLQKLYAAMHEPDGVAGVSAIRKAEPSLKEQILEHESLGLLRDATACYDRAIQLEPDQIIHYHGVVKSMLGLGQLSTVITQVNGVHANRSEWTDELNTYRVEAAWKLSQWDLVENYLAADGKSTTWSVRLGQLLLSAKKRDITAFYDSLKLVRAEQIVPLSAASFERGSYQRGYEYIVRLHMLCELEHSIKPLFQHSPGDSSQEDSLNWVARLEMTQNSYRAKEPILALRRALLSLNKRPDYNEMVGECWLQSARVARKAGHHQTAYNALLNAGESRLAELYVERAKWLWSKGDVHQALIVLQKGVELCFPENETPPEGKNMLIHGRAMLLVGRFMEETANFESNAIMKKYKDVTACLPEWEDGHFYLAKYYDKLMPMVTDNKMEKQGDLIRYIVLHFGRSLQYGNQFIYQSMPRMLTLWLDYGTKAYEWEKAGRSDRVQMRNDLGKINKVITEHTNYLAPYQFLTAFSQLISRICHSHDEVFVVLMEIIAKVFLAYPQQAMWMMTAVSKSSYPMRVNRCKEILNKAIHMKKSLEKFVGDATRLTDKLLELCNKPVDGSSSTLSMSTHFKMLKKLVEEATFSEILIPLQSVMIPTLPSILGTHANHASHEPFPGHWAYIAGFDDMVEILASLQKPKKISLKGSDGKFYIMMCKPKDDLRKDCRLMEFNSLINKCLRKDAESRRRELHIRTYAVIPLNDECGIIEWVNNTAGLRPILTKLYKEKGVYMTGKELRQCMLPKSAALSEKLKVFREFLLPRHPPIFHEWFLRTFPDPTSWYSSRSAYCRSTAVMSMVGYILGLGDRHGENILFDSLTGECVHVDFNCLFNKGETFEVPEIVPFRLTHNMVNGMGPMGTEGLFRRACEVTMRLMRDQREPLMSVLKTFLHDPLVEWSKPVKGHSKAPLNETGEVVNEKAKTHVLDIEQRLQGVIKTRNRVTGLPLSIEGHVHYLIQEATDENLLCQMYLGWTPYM
SIRT5: NAD-dependent protein deacylase sirtuin-5, mitochondrial (SIRT5, Homo sapiens, UniProt Q9NXA8)
Sequence of UniProt Q9NXA8 (whole entry, looked up): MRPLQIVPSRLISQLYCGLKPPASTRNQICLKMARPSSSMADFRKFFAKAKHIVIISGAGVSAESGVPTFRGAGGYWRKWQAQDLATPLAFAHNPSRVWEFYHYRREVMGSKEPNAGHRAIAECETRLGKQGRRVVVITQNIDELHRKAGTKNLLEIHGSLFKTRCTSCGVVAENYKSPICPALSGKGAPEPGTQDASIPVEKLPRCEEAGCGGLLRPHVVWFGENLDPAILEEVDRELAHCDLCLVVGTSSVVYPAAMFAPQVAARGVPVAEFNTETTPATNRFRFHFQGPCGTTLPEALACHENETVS
Genome polyprotein NS2B-NS3 protease: Genome polyprotein, NS2B-NS3 protease (dengue virus type 2, UniProt P29990)
HDAC4: Histone deacetylase 4 (HDAC4, Homo sapiens, UniProt P56524)
Sequence of UniProt P56524 (whole entry, looked up): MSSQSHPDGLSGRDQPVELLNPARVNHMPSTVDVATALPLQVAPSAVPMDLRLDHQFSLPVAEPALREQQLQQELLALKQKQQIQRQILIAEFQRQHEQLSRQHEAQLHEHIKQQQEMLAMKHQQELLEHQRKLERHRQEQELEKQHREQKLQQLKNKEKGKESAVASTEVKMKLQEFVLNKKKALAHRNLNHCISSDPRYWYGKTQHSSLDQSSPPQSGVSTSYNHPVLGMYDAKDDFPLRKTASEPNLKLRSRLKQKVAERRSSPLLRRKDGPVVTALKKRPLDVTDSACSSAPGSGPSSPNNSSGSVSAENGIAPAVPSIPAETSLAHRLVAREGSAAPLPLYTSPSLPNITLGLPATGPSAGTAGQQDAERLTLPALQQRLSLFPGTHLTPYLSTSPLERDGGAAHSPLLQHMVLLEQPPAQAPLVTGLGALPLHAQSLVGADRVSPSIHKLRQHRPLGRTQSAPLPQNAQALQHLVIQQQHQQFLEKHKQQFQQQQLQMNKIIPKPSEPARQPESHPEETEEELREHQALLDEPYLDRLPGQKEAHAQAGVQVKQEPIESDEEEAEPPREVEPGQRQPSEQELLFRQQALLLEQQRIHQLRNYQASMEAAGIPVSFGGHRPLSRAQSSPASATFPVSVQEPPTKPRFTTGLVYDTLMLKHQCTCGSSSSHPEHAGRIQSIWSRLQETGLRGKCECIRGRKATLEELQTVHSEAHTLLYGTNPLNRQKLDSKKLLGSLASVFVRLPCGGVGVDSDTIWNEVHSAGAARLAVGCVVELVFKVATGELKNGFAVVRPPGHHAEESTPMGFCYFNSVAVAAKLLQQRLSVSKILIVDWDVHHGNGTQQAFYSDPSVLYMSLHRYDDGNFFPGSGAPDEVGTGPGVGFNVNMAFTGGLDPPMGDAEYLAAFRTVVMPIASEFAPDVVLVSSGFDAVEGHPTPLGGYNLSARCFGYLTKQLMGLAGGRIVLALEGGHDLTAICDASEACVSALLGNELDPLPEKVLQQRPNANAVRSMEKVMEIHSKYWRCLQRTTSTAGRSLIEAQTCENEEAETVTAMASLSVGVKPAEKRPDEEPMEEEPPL
Apeh: Acylamino-acid-releasing enzyme (Apeh, Mus musculus, UniProt Q8R146)
Sequence of UniProt Q8R146 (whole entry, looked up): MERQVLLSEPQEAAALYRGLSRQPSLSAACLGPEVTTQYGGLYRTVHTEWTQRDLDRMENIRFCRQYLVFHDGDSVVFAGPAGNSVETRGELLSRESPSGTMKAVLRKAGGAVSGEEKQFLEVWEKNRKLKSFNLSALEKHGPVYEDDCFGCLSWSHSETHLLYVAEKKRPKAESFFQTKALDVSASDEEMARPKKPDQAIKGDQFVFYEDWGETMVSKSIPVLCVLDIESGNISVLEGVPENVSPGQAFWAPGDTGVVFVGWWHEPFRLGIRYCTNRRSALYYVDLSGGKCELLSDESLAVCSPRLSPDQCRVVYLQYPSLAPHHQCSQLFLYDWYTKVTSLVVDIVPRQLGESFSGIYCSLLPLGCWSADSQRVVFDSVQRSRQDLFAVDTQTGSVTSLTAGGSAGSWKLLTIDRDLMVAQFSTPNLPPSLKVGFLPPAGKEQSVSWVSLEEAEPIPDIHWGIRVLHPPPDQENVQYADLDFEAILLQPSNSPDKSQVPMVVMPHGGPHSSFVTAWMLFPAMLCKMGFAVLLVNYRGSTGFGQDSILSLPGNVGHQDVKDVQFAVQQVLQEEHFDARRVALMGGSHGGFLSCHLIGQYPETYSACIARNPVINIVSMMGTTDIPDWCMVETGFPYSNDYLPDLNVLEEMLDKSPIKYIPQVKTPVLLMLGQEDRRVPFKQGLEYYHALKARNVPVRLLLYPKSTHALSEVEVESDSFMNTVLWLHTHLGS
TNKS: Poly [ADP-ribose] polymerase tankyrase-1 (TNKS, Homo sapiens, UniProt O95271)
CNR2: Cannabinoid receptor 2 (CNR2, Homo sapiens, UniProt P34972)
Sequence of UniProt P34972 (whole entry, looked up): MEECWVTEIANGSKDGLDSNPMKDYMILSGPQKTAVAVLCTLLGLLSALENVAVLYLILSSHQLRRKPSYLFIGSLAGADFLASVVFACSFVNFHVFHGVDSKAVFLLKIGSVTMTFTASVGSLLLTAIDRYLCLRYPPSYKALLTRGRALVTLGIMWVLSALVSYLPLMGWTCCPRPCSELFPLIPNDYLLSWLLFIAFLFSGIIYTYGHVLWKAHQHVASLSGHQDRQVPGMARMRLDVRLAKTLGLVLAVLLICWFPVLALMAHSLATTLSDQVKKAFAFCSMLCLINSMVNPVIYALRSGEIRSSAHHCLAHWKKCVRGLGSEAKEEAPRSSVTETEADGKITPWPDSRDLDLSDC

CCCCCCCCCCCCCCCC(=O)N[C@@H](CCCCN)C(=O)N[C@@H](CCCCN)C(=O)N[C@@H](CO)C(=O)N[C@@H](CCCNC(=N)N)C(=O)N[C@@H](C)C(=O)N[C@@H](CC(C)C)C(=O)N[C@@H](Cc1ccccc1)C(N)=O  inhibition (Proteinase-activated receptor 4 (F2RL3, Homo sapiens, UniProt Q96RI0); platelet aggregation, ex vivo LTA; human; 0.3 mg/kg, 30 min, together with: AYPGKF 160 µM; relative to: baseline): 16%
O=C(NO)c1cc(F)cc(OS(=O)(=O)Oc2ccc3ccccc3c2)c1  inhibition (Histone deacetylase 11 (HDAC11, Homo sapiens, UniProt Q96DB2); 10 µM): 20%
COc1ccc(C(=O)/C=C/c2ccccc2-c2c[nH]c3ccc(C#N)cc23)c(O)c1  inhibition (ATR; enzyme activity, inhibitor; 20 µM): 10%
CS(=O)(=O)Nc1cccc(-c2csc3cnc(Nc4ccc(N5CCN(CCCCCOc6cccc7c6C(=O)N(C6CCC(=O)NC6=O)C7=O)CC5)cc4)nc23)c1 (stereo not shown)  inhibition (Diacylglycerol kinase alpha (DGKA, Homo sapiens, UniProt P23743); probe labelling, inhibitor, KiNativ chemoproteomics; MOLT-4; 1 µM): -19.8%
N#C/C(=C\c1ccc(-c2cc(Cl)ccc2Cl)o1)C(=O)Nc1cccc2ncccc12  inhibition (SIRT5; enzyme activity, inhibitor; 100 µM): 15%
CN1CCN(Cc2ccc(-c3ccc(CO[C@H]4CCC[C@@H]4NC(=O)c4cc(-c5cnn(C)c5)cnc4N)cc3)cc2)CC1  inhibition (Receptor-interacting serine/threonine-protein kinase 3 (RIPK3, Homo sapiens, UniProt Q9Y572); enzyme activity, inhibitor; 0.1 µM): -6%
O=C(NC(c1ccccn1)c1ccccn1)c1cc(-c2ccccc2)n(-c2ccccc2)n1  inhibition (Genome polyprotein NS2B-NS3 protease; reporter gene; HeLa; 12.5 µM): 53%
O=C1c2sc(-c3ccc(N4CCC(F)C4)nc3F)nc2CCN1c1cccnc1 (stereo not shown)  inhibition (L-type Ca2+ channel, benzothiazepine (diltiazem) site; radioligand binding, BioPrint binding panel; 1 µM, together with: antagonist radioligand): -26%
O=C(NCc1ccccn1)c1cc(-c2ccccc2)n(-c2ccccc2)n1  inhibition (Genome polyprotein NS2B-NS3 protease; reporter gene; HeLa; 12.5 µM): 35%
Cc1cc(C)nc(SCC(=O)Nc2ncc(Cc3cccc4ccccc34)s2)n1  inhibition (SIRT5; enzyme activity, inhibitor; 100 µM): < 5%
O=C(/C=C/c1cccc(OS(=O)(=O)Oc2ccc(Br)cc2)c1)NO  inhibition (HDAC4; 10 µM): 17%
NC(=O)c1cccc(NC(=O)c2cc(-c3ccccc3)n(-c3ccccc3)n2)c1  inhibition (Genome polyprotein NS2B-NS3 protease; enzyme activity, fluorogenic AMC substrate; 50 µM): 47%
COc1cc(-c2cn(C)c(=O)c3cnccc23)cc(OC)c1CN(C)C  inhibition (PHIP, BD2 (Homo sapiens, UniProt Q8WWQ0); 1 µM): -16.8%
C=CCN(CC=C)C(=O)n1ccnn1  inhibition (Apeh; serine hydrolase activity, inhibitor, competitive gel-based ABPP; mouse T-cell proteome; 1 µM, 30 min, 37 °C): < 50%
O=C(NC1CCC1)[C@H](Cc1c[nH]c2ccccc12)NC(=O)[C@H](CCCCNC(=S)Nc1ccc(F)c(O)c1F)NS(=O)(=O)c1cccc(F)c1  inhibition (SIRT5; enzyme activity, inhibitor; 100 µM): 61%
CC(=O)N[C@H](C(=O)N[C@@H](CO)C(=O)N[C@@H](Cc1ccccc1)C(=O)N[C@H]1CCCCNC(=N)Nc2ccc(cc2)CCNC(=N)NCCCC[C@@H](C(=O)N2CCC[C@H]2C(N)=O)NC(=O)[C@H](CC(C)C)NC(=O)[C@H](CC(C)C)NC(=O)[C@H](C)NC(=O)[C@H](Cc2c[nH]c3ccccc23)NC(=O)[C@H](Cc2ccc(O)cc2)NC(=O)[C@H](CCC(=O)O)NC1=O)[C@@H](C)O  inhibition (E3 ubiquitin-protein ligase Mdm2 (MDM2, Homo sapiens, UniProt Q00987); protein-protein interaction, inhibitor, TR-FRET; 0.1 µM): 96%
O=C(c1cc(-c2ccccc2)n(-c2ccccc2)n1)N1CCN(Cc2ccccn2)CC1  inhibition (Genome polyprotein NS2B-NS3 protease; enzyme activity, fluorogenic AMC substrate; 50 µM): 11%
CNC(=O)C[C@H](Cc1ccc(C#N)cc1)NC(=O)c1cc(-c2ccc(CN[C@H](C)c3ccc(C)cc3)o2)ccc1Cl  inhibition (Motilin receptor (MLNR, Homo sapiens, UniProt O43193); agonist response, antagonist; human cells; 10 µM, motilin antagonist): 50%
C/C=C/C(=O)Nc1ccc2nc(NCCCCCN(C)C)nc(NCCCCCCN(C)C)c2c1  inhibition (Histone-lysine N-methyltransferase KMT5C (KMT5C, Homo sapiens, UniProt Q86Y97); enzyme activity, inhibitor, radiometric; 50 µM): 57%
C=CC(=O)Nc1cccc(-c2cnc3[nH]cc(C(=O)NC(C)(C)C)c3n2)c1  inhibition (PAS domain-containing serine/threonine-protein kinase (PASK, Homo sapiens, UniProt Q96RG2); enzyme activity, inhibitor; 0.1 µM): 1%
C=CC(=O)N1[C@@H](c2ccc3c(c2)OCO3)c2[nH]c3ccccc3c2C[C@H]1C(=O)NC1CC1  inhibition (Heme oxygenase 2 (HMOX2, Homo sapiens, UniProt P30519); cysteine IA-DTB labelling, covalent inhibitor, MS-ABPP; 22Rv1; 20 µM, in situ treatment; relative to: DMSO): 50%
N#Cc1c(Nc2ccccc2C(F)(F)F)s[nH]c1=O  inhibition (NAD(+) hydrolase SARM1 (SARM1, Homo sapiens, UniProt Q6SZW1); enzyme activity, inhibitor; 10 µM): 100%
O=C(N(c1ccccc1)c1ccccc1)n1ccnn1  inhibition (Apeh; serine hydrolase activity, inhibitor, competitive gel-based ABPP; mouse T-cell proteome; 1 µM, 30 min, 37 °C): < 50%
CC[C@H](C)[C@@H]1NC(=O)[C@H](Cc2ccccc2C(F)(F)F)NC(=O)CCSCc2cccc(n2)CSCCCNC(=O)[C@H](CCCCCC(=O)NO)NC1=O  inhibition (HDAC4; enzyme activity, inhibitor, fluorogenic; 30 µM): 30%
CN(C)C/C=C/C(=O)Nc1ccc2nc(NCCCCCN(C)C)nc(NCCCCCCN(C)C)c2c1  inhibition (RNA 5'-monophosphate methyltransferase (BCDIN3D, Homo sapiens, UniProt Q7Z5W3); enzyme activity, inhibitor, radiometric; 10 µM): 76%
O=C(CCCc1ccc2c(c1)OCCO2)NCCNC(=O)Cn1c(=O)[nH]c(=O)c2ccccc21  inhibition (TNKS; enzyme activity, inhibitor; 50 nM): 10%
Cc1ccc(-n2nc(C(=O)Nc3cccc(C(N)=O)c3)cc2-c2ccc(CC(C)C)cc2)cc1  inhibition (Genome polyprotein NS2B-NS3 protease; enzyme activity, fluorogenic AMC substrate; 50 µM): 98%
C[Si]1(C[C@H](CN)CC(=O)O)CCCC1  inhibition (CNR2; ligand displacement, radioligand; 70 µM): -10%
Brc1ccccc1-c1nnc(CSc2nnnn2-c2ccccc2)o1  inhibition (Alpha-1D adrenergic receptor (ADRA1D, Homo sapiens, UniProt P25100); ligand displacement, radioligand; 10 µM): -10%
O=C(Nc1ccc(C(F)F)cc1)[C@H](CC1CCCCC1)Nc1nn2c(=O)ccnc2s1  inhibition (Dual specificity protein phosphatase 3 (DUSP3, Homo sapiens, UniProt P51452); enzyme activity, inhibitor; 10 µM): 1%
CCC(=O)N(C)c1ccc(Cl)c(Cl)c1  inhibition (Substance-K receptor (TACR2, Homo sapiens, UniProt P21452); ligand displacement, radioligand; 10 µM): < 10%
O=C1c2sc(-c3ccc(N4CCC(CO)CC4)nc3F)nc2CCN1c1cccnc1  inhibition (Adenosine receptor A2a (ADORA2A, Homo sapiens, UniProt P29274); ligand displacement, radioligand; 1 µM): 4%
NC(=O)c1cc(-c2ccc3c(c2)OCCO3)n(-c2ccccc2)n1  inhibition (Genome polyprotein NS2B-NS3 protease; reporter gene; HeLa; 12.5 µM): 37%
O=C1CCC(N2Cc3cc(C(=O)O)c(F)cc3C2=O)C(=O)N1 (stereo not shown)  inhibition (Protein cereblon (CRBN, Homo sapiens, UniProt Q96SW2); tracer binding, NanoBRET target engagement; concentration not given, intact cells, no permeabilisation): ≤ 50%
O=C(CC1CC2CCC1C2)NCCNC(=O)Cn1c(=O)[nH]c(=O)c2ccccc21 (stereo not shown)  inhibition (TNKS; enzyme activity, inhibitor; 0.5 µM): 5%
NC(=O)c1cccc(NC(=O)c2cc(O)n(-c3ccccc3)n2)c1  inhibition (Genome polyprotein NS2B-NS3 protease; enzyme activity, fluorogenic AMC substrate; 50 µM): 15%
CC(C)Cn1c(SCC(=O)N2CCc3ccccc3C2)nc2cc(Cl)ccc2c1=O  inhibition (Histamine H4 receptor (HRH4, Homo sapiens, UniProt Q9H3N8); ligand displacement, radioligand; 10 µM): -15%
CC(=O)C12NC(C)(C)CC1(C)C(=O)C1=C2c2c(c3c4n2C(C)(C)CC2=C4C4(CC(C)(C)NC(C)(C4)C2=O)CC3(C)C)C(=O)C(C)(C)N1 (single isomer, unassigned; (+))  inhibition (Transient receptor potential cation channel subfamily V member 4 (TRPV4, Homo sapiens, UniProt Q9HBA0); ion current, inhibitor, patch clamp; HEK-293T; 50 µM): 26.8%
O=C1CO[C@H](CNC(=O)C2(c3ccc(Cl)cc3)CC2)CN1C1Cc2ccccc2C1  inhibition (C-C chemokine receptor type 8 (CCR8, Homo sapiens, UniProt P51685); β-arrestin recruitment, antagonist; 1 µM): 1%
Cc1cccc(N2CCC(C(=O)Nc3cccc(C(N)=O)c3)C2=O)c1 (stereo not shown)  inhibition (Genome polyprotein NS2B-NS3 protease; enzyme activity, fluorogenic AMC substrate; 50 µM): 17%
CN1CC[C@@H](COc2cnc(C#N)cc2-c2ccn3nc(NC(=O)C4CC4)cc3c2)C1  inhibition (ATR; enzyme activity, inhibitor; 1 µM): -2%
CN(Cc1ccc(/C=C/C(=O)NO)cc1)CC12CC3CC(CC(C3)C1)C2  inhibition (human A3 receptor; agonist radioligand binding; 0.05 µM): 15%
C[Si](C)(C)C[C@H](CN)CC(=O)O  inhibition (CNR2; ligand displacement, radioligand; 250 µM): 2%

For quick reference, copied from above:
O=C1c2sc(-c3ccc(N4CCC(F)C4)nc3F)nc2CCN1c1cccnc1 (stereo not shown)  inhibition (L-type Ca2+ channel, benzothiazepine (diltiazem) site; radioligand binding, BioPrint binding panel; 1 µM, together with: antagonist radioligand): -26%
O=C(NCc1ccccn1)c1cc(-c2ccccc2)n(-c2ccccc2)n1  inhibition (Genome polyprotein NS2B-NS3 protease; reporter gene; HeLa; 12.5 µM): 35%
Cc1cc(C)nc(SCC(=O)Nc2ncc(Cc3cccc4ccccc34)s2)n1  inhibition (SIRT5; enzyme activity, inhibitor; 100 µM): < 5%
O=C(/C=C/c1cccc(OS(=O)(=O)Oc2ccc(Br)cc2)c1)NO  inhibition (HDAC4; 10 µM): 17%
